Measurements collected from several papers.
Each line is one published result; not all experiments were run side by side.
Sequence of UniProt Q8TF76 (whole entry, looked up): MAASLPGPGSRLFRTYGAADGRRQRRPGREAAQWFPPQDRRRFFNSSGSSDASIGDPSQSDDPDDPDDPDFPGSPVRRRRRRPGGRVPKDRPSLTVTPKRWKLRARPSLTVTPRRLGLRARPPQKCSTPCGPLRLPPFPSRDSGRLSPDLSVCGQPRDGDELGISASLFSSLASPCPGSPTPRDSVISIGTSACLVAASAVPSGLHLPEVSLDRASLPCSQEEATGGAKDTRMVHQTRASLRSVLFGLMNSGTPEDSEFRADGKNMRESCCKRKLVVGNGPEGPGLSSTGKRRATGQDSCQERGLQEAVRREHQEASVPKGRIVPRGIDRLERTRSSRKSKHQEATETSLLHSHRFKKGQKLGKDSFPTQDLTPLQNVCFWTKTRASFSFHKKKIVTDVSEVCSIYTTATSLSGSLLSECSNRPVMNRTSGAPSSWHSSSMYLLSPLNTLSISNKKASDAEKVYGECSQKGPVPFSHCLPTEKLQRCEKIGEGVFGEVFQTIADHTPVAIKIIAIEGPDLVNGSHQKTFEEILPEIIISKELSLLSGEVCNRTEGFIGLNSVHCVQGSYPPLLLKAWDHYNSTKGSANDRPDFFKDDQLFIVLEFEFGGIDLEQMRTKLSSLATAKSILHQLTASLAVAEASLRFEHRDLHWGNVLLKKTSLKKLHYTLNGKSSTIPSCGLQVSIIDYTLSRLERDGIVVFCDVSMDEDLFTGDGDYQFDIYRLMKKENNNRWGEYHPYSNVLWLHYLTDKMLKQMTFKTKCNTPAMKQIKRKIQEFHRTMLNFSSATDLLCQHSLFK
Sequence of UniProt Q16620 (whole entry, looked up): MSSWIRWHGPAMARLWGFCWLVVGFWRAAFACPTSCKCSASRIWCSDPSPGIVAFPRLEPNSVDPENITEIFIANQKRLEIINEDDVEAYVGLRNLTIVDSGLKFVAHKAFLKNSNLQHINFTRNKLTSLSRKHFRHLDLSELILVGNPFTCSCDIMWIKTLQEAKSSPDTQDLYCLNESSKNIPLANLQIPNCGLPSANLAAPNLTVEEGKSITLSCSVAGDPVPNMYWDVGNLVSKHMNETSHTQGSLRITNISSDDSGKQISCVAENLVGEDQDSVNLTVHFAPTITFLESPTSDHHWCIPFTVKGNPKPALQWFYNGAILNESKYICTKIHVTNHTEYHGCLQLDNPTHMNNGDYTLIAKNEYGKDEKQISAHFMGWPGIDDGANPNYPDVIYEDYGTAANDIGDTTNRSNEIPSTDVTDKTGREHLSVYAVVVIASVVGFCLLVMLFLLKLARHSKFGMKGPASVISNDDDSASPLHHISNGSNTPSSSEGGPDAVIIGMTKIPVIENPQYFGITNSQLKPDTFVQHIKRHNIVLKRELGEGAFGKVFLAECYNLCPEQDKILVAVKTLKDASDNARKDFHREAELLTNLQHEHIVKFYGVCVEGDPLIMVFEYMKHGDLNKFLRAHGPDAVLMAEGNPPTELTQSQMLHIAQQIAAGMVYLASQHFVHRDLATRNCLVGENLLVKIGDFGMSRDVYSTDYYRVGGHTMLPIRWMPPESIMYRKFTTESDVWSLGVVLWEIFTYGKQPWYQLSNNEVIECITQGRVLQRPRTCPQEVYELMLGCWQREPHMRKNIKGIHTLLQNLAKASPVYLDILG
Sequence of UniProt Q6P2M8 (whole entry, looked up): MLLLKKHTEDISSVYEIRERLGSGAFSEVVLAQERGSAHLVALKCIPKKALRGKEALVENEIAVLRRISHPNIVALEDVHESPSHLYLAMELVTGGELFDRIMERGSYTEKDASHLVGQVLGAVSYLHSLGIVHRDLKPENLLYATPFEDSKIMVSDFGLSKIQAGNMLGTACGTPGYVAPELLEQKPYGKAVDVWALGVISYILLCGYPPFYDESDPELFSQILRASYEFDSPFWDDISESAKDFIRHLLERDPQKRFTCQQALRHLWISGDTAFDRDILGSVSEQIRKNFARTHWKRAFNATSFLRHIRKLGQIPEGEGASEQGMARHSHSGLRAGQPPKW

SMILES	tested on	assay	test system	setting	quantity	result
COc1cccc(-c2n[nH]c(SCc3ccccn3)n2)c1OC	–	–	female Sprague-Dawley rat, plasma	intravenous, 1 mg/kg, 1.98 min, single dose	concentration	9840 ng/mL
N#Cc1ccc(-c2csc(CNC(=O)[C@H]3CCCN(C(=O)N4CCCO4)C3)n2)cc1	–	metabolic stability	male Sprague-Dawley rat, liver microsomes	0.5 µM	microsomal CLint	110 µL/min/mg
N#C[C@@]12C[C@@H]1[C@@H](n1cnc3c(N[C@@H](C4CCC4)C4CC4)nc(I)nc31)[C@H](O)[C@@H]2O	–	–	male Wistar rat, plasma	oral, 10 mg/kg	AUC(0-t)	343 ng·h/mL
CC(=O)N(C)[C@H]1CCN(C(=O)c2cnc3c(c2)C[C@](C)(c2ccc(F)cc2)N3)C1	–	–	male human, plasma	oral, 60 mg, multiple doses, once daily, steady state	AUC(0-t)	8.17 µM·h
Cc1cccc(CNc2nc(-c3ccccn3)nc3ccccc23)n1	–	–	PAMPA	10 µM, 3 h, pH 7.4	Papp	23.6 ×10⁻⁶ cm/s
COc1ccc([C@@H]2Sc3ccccc3N(CCN(C)C)C(=O)[C@@H]2OC(C)=O)cc1	–	metabolic stability	Sprague-Dawley rat, hepatocytes	0.5 µM, pH 7.4	hepatocyte CLint	250 µL/min/10⁶ cells
N#CC1CCN(c2nc(-c3ccccn3)nc3ccccc23)CC1	–	–	PAMPA	10 µM, 3 h, pH 7.4	Papp	22.9 ×10⁻⁶ cm/s
CNc1ncc2c(/C=C/C(=O)N3CCC(OC)CC3)nn(Cc3cccc(C(F)(F)F)c3)c2n1	Serine/threonine-protein kinase haspin (HASPIN, Homo sapiens, UniProt Q8TF76)	enzyme activity, inhibitor, radiometric	–	1 µM	remaining activity	90%
O=C(Nc1ccc(CN2CCOCC2)c(C(F)(F)F)c1)c1ccc(C#Cc2cccc3cnccc23)cn1	–	metabolic stability	mouse, liver microsomes	0 h	compound remaining	100%
COc1cc(C2C3=C(COC3=O)N(CCO)c3cc4c(cc32)CCC4)cc(OC)c1OC (centres unmarked)	–	–	female Sprague-Dawley rat, plasma	intraperitoneal, 50 mg/kg	Tmax	0.25 h
c1ccc(-c2nc(N3CCCC(c4ccccn4)C3)c3ccccc3n2)nc1 (centres unmarked)	–	metabolic stability	mouse, liver microsomes	–	microsomal CLint	522 µL/min/mg
O=C(COc1ccc(Cl)cc1)NC12CC(c3nnc([C@H]4C[C@@H](OC(F)(F)F)C4)o3)(C1)C2	–	–	human, plasma	oral, 100 mg, multiple doses, once daily, healthy volunteers	half-life	41.1 h
CC1(C)CC[C@]2(NC(=O)C(C)(F)F)CC[C@]3(C)[C@H](C(=O)C=C4[C@@]5(C)C=C(C#N)C(=O)C(C)(C)[C@@H]5CC[C@]43C)[C@@H]2C1	–	–	human, plasma	oral, 150 mg, single dose	Vd/F	9250 L
N=C(N)c1cccc(OCc2ccccc2COc2cccc(C(=N)N)c2)c1	–	haemolysis	sheep	200 µg/mL, 1 h	haemolysis	0.1%
O=C(O)c1ccc2nc(-c3cc(Cl)cc(Cl)c3)oc2c1	–	–	human, plasma	–	fraction unbound	0.0011
COCC(=O)N1CCC[C@H](C(=O)NCc2nc(-c3ccc(-c4cccnc4)cc3)cs2)C1	–	metabolic stability	human, liver microsomes	0.5 µM	microsomal CLint	55 µL/min/mg
COc1cc(C(=O)NC2CCN(C)CC2)c(F)cc1Nc1ncc(C(F)(F)F)c(Oc2cccc3c2C(=O)N(C)C3)n1	–	–	human, plasma	oral, 100 mg, multiple doses, once daily, steady state, patients	Cmax	1430 nM
N=C(N)c1ccccc1OCc1ccc(COc2ccccc2C(=N)N)cc1	–	haemolysis	sheep	200 µg/mL, 20 h	haemolysis	0%
CC(=O)CC(c1ccccc1)c1c(O)c2ccccc2oc1=O (centres unmarked)	–	metabolic stability	Sprague-Dawley rat, hepatocytes	0.5 µM, pH 7.4	hepatocyte CLint	2.6 µL/min/10⁶ cells
c1ccc(-c2nc(N3CCC(c4ccccn4)C3)c3ccccc3n2)cc1 (centres unmarked)	–	metabolic stability	mouse, liver microsomes	–	microsomal CLint	604 µL/min/mg
O=C(N1CCCCC1)C12CC(c3ccccc3)(C1)C2	–	metabolic stability	human, liver microsomes	2 µM, 7 min, pH 7.4	compound remaining	93%
CCN1CCN(Cc2ccc(NC(=O)c3ccc(C)c(NC(=O)c4cncc(-c5cccs5)c4)c3)cc2C(F)(F)F)CC1	–	–	mouse, plasma	intraperitoneal, 10 mg/kg, single dose	AUC(0-t)	1120 ng·h/mL
O=C(c1ccc(F)cc1)C1CCN(CCn2c(=O)[nH]c3ccccc3c2=O)CC1	–	metabolic stability	dog, liver microsomes	5 min	compound remaining	96.4%
C=CC(=O)N1CCC(COCC(=O)N2CCN(c3nc(-c4cnc(N)nc4C(F)F)nc(N4CCOC[C@@H]4C)n3)CC2)CC1	BDNF/NT-3 growth factors receptor (NTRK2, Homo sapiens, UniProt Q16620)	binding, competition with immobilised ligand	–	1 µM	remaining binding	95%

SMILES	tested on	assay	test system	setting	quantity	result
O=c1c2c([nH]c3cc(Nc4ccc(OC(F)(F)F)cc4)ccc13)CCCC2	–	metabolic stability	mouse, liver microsomes	1 µM, pH 7.4	microsomal CLint	80.4 µL/min/mg
CCOC(=O)[C@@]12C[C@@H]1[C@@H](n1ccc3c(NC)nc(C#Cc4ccc(Cl)s4)nc31)[C@H](O)[C@@H]2O	–	–	male Sprague-Dawley rat, plasma	oral, 10 mg/kg, 12 h	concentration	3.84 ng/mL
Cn1nc2c(=O)n(C3CC3)ccc2c1[C@](O)(c1ccc(C(F)(F)F)nc1)C1CC1	–	metabolic stability	male Sprague-Dawley rat, hepatocytes	0.5 µM, pH 7.4	hepatocyte CLint	2.3 µL/min/10⁶ cells
COc1cc(-c2cncc3c2CN(C)Cc2cc(N4CCNCC4)ccc2-3)cc(OC)c1OC	Calcium/calmodulin-dependent protein kinase type 1B (PNCK, Homo sapiens, UniProt Q6P2M8)	enzyme activity, inhibitor	–	1 µM	remaining activity	106%
N#Cc1cccc(-c2ccc3ncc(-c4cc(F)cc(F)c4)c(N4CCC(N)CC4)c3c2)c1O	–	–	male human, plasma	oral, 20 mg, single dose	Vd/F	310 L
COc1ccccc1-c1nc(N2CCC(c3ccccn3)C2)c2ccccc2n1 (centres unmarked)	–	metabolic stability	mouse, liver microsomes	–	microsomal CLint	471 µL/min/mg
NCc1cc2c(cc1F)C(=O)N(C1CCC(=O)NC1=O)C2 (centres unmarked)	–	–	male CD-1 mouse, plasma	intravenous, 1 mg/kg, 15 min	concentration	56.5 ng/mL
Cn1nc2c(=O)n(C3CC3)ccc2c1[C@](O)(c1cnc(C(F)(F)F)c(Cl)c1)C1CC1	–	metabolic stability	human, hepatocytes	0.5 µM, pH 7.4	hepatocyte CLint	3 µL/min/10⁶ cells
c1ccc(-c2nc(N3CCCCCC3)c3ccccc3n2)nc1	–	metabolic stability	mouse, liver microsomes	–	microsomal CLint	413 µL/min/mg
COc1ccc2c(c1)CN(C(=O)CCN1CCC(Cc3ccccc3)CC1)CC[S@@+]2[O-]	–	–	male human, plasma	intravenous, 0.01 mg/kg, healthy volunteers	AUC(0-inf)	46.4 ng·h/mL
COc1ccc2nc(-c3cc(N(C)C)ccn3)c(Nc3ccc(F)cc3)n2c1	–	metabolic stability	rat, hepatocytes	–	hepatocyte CLint	> 300 µL/min/10⁶ cells
N=C(N)c1ccc(OCCC(CCOc2ccc(C(=N)N)cc2)c2ccccc2)cc1 (centres unmarked)	–	haemolysis	sheep	200 µg/mL, 1 h	haemolysis	0.5%
CN1CCC(Oc2ccc3c(=O)c4c(F)cc(Cl)cc4[nH]c3c2)CC1	–	metabolic stability	mouse, liver microsomes	1 µM, pH 7.4	microsomal CLint	7.15 µL/min/mg
N=C(N)c1ccc(OCCCCCCCCCCCOc2ccc(C(=N)N)cc2)cc1	–	haemolysis	sheep	200 µg/mL, 1 h	haemolysis	8.5%
CNC(=O)c1cc(OC)cc2c(N3CCc4c(cc(Cn5ccnc5)cc4-c4cn(C)nc4C(F)(F)F)C3=O)ccnc12	–	–	male CD-1 mouse, plasma	intravenous, 3 mg/kg	MRT(0-inf)	0.4 h
O=C1CC[C@H](N2Cc3cc(N4CCN(CC5CCN(c6ccc([C@@H]7c8ccc(O)cc8CC[C@@H]7c7ccccc7)cc6)CC5)CC4)ccc3C2=O)C(=O)N1	–	–	female Sprague-Dawley rat, plasma	intravenous, 5 mg/kg, fed	AUC(0-t)	11400 ng·h/mL
Cc1nn(C2CC2)c(=O)c2nn(C)c(Cc3ccc(C(F)(F)F)c(C#N)c3)c12	–	metabolic stability	human, hepatocytes	0.5 µM, pH 7.4	hepatocyte CLint	1.5 µL/min/10⁶ cells
NCCOCC(=O)N1CCC[C@H](C(=O)NCc2nc(-c3ccc(C(F)(F)F)cc3)cs2)C1	–	metabolic stability	human, liver microsomes	0.5 µM	microsomal CLint	< 3 µL/min/mg
Cc1ncsc1-c1ccc(CNC(=O)[C@@H]2C[C@@H](O)CN2C(=O)[C@@H](NC(=O)CCCCCCCCCCNC(=O)O[C@H]2C[C@@H](C)C=C3C=C[C@H](C)[C@H](CC[C@@H]4C[C@@H](O)CC(=O)O4)[C@H]32)C(C)(C)C)cc1	–	–	C57BL/6 mouse, plasma	oral, 60 mg/kg, single dose	MRT(0-inf)	10.2 h
CCc1cc(-c2noc(-c3cc(OC)nc(C4CCCC4)c3)n2)cc(C)c1OC[C@@H](O)CO	–	–	Wistar rat, plasma	oral, 3 mg/kg, 24 h, single dose	concentration	78 ng/mL
Cn1nc2c(=O)n(C3CC3)cnc2c1[C@](O)(c1cnc(C(F)(F)F)c(Cl)c1)C(F)(F)F	–	–	Caco-2	–	Papp B→A	85 ×10⁻⁶ cm/s
Cc1ccc(S(=O)(=O)n2cc3c4c2C(=O)C(NCc2ccc(Cl)cc2)=CC4=NCC3)cc1	–	–	rat, plasma	intravenous, 5 mg/kg, single dose	AUC(0-inf)	1860 ng·h/mL
COc1ccc([C@@H](O)c2cc(-c3ncnc4cc(N5CCOCC5)ccc34)c(F)cc2Cl)nn1	–	–	human, plasma	oral, 100 mg, multiple doses, twice daily, patients	Cmax	693 ng/mL

For quick reference, copied from above:
SMILES	tested on	assay	test system	setting	quantity	result
N=C(N)c1ccccc1OCc1ccc(COc2ccccc2C(=N)N)cc1	–	haemolysis	sheep	200 µg/mL, 20 h	haemolysis	0%
CC(=O)CC(c1ccccc1)c1c(O)c2ccccc2oc1=O (centres unmarked)	–	metabolic stability	Sprague-Dawley rat, hepatocytes	0.5 µM, pH 7.4	hepatocyte CLint	2.6 µL/min/10⁶ cells
c1ccc(-c2nc(N3CCC(c4ccccn4)C3)c3ccccc3n2)cc1 (centres unmarked)	–	metabolic stability	mouse, liver microsomes	–	microsomal CLint	604 µL/min/mg
